Experimental data collected from several papers.
Parts stem from different laboratories: compare values within a part only. Changes are numbered by the printed parent chain.

Series 1 — method: protein-binding microarray; form: double-stranded DNA, one strand shown; sample: in vitro; tested at: 250 nM; setting: 60-bp whole probe; with: salmon DNA 0.4 mg/ml; reference: random background probes; reading: higher = stronger binding; measurement: log fluorescence; shared flanks, not repeated: GCCTAGCAC … GTCTTGATTCGCTTGACGCTGCTG
Target: Interferon regulatory factor 5, full length, phosphomimetic (IRF5, Homo sapiens, UniProt Q13568-2, residues 1-514, K96S/S451D/S453D/S456D/S462D)
GACGGTTCCCTTTTCCTGGCGTGCTAG: 0.244 z-score
TTAGAACTGGGGTTTCGATTCGTGCTA: 4.82 z-score
ATATACCTGAATATCTTCAGGTGCTAG: 0.314 z-score
GACGGTATCGGGTTTCGGTACGTGCTA: 7.47 z-score
TCATTTCTTTTTTTCTTACTGTGCTAG: 1.87 z-score
TATGGTATTTTTTTCTAATTGTGCTAG: 0.861 z-score
GGCGATTCCAGTTTCGAGACGTGCTAG: 5.18 z-score
TTAGGACTGCTACTGCTTCAGTGCTAG: -0.265 z-score
TGGCCTCTAGGTTTTCTGGAGTGCTAG: -0.526 z-score
TTAGGATTCGGGACTGGGTTAGTGCTA: 0.0505 z-score
GCTCATTTTTTTTGCAAGCTGTGCTAG: 0.343 z-score
TTAGATATCGGCTTTCGATTAGTGCTA: 8.1 z-score
TTAGATTTCAGTCTTGATTAGTGCTAG: 1.89 z-score
TCTGACCCCCTGCGCGGCAGGTGCTAG: -0.416 z-score
TCAAATTTACTTTCTACACTGTGCTAG: 3.44 z-score
GACGGACTGCACACTGGGGACGTGCTA: -0.541 z-score
CCCACTTTCACTTCTCCCTTGTGCTAG: 8.1 z-score
GACGATATCGGGAATCGAGACGTGCTA: 1.25 z-score
TCATGTTTGGTTCTTATACTGTGCTAG: 0.725 z-score
GCAAAAATGATTGGTTGAACGTGCTAG: 0.371 z-score
TTAGGTATCGGTTTTGGTTAGTGCTAG: 8.17 z-score
GACAATTTCGGGACTGGAGACGTGCTA: 3.99 z-score
TGATCTCTGGTCTTTGTCAGGTGCTAG: 0.111 z-score
TTCTTTACCACATTCTCTGCGTGCTAG: 0.621 z-score
GAGTGGTTCTGCTTCTTAGCGTGCTAG: -0.452 z-score

Series 2 — method: aptamer microarray, sandwich; form: DNA with 2'F-ANA; sample: in vitro; tested at: 200 nM; with: Cy3 exosite-II aptamer, 400 nM; reading: higher = stronger binding; measurement: mean fluorescence intensity; oligonucleotide: GGTTGGTGTGGTTGG
Target: Prothrombin, mature alpha-thrombin (F2, Homo sapiens, UniProt P00734)
Setting: whole 15-mer aptamer, many near background
2'F-ANA at 4 5 6 7 9: 88.2 a.u.
2'F-ANA at 2 5 11 12 15: 168 a.u.
2'F-ANA at 1 2 5 7 8 11 13 14 15: 49.4 a.u.
2'F-ANA at 1 4 5 7 10 11 13 15: 47.2 a.u.
2'F-ANA at 1 2 5 7 9 12 15: 106 a.u.
2'F-ANA at 1 3 4 7 8 9 12: 481 a.u.
2'F-ANA at 1 2 3 4 7 8 10 12 13 14 15: 64 a.u.
2'F-ANA at 1 2 3 8 9 11: 235 a.u.
2'F-ANA at 1 3 4 5 6 8 9 10 12 13: 51.6 a.u.
2'F-ANA at 2 4 5 9 10 11 13: 44.4 a.u.
2'F-ANA at 3 6 7 12 13 14 15: 580 a.u.
2'F-ANA at 1 2 3 4 6 7 11 15: 127 a.u.
2'F-ANA at 3 5 8 9 10 13 14: 50.3 a.u.
2'F-ANA at 2 7 8 9 10 11 12 14 15: 102 a.u.
2'F-ANA at 1 2 4 6 8 10 11 13 14 15: 60.1 a.u.
2'F-ANA at 3 4 6 10 11 12 14 15: 186 a.u.

Series 3 — target: CEBPE, bZIP domain (human); method: DHFR protein complementation; sample: yeast; reference: wild-type JUN-FOS pair; reading: higher = stronger binding; measurement: binding fitness
Setting: single substitutions, most at no-binding floor
Parent: JUN, bZIP domain (human); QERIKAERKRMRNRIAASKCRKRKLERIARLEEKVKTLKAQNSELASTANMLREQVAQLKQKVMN; partner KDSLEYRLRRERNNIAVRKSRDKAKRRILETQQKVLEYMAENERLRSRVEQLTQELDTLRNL
S43L: -1.04 natural log
L38G: -1.47 natural log
T48M: -1.11 natural log
L52T: -1.54 natural log
M51G: -1.31 natural log
E32T: -1.35 natural log
A49Q: -1.33 natural log
K39E: -0.995 natural log
I28T: -1.31 natural log
R30Y: -1.16 natural log
K34H: -1.17 natural log
E32P: -1.39 natural log
I28W: -1.12 natural log
L31P: -1.52 natural log
T37E: -0.921 natural log
A57G: -1.28 natural log
A46E: -1 natural log
L45P: -1.5 natural log
Q41H: -1.4 natural log
A40T: -1.1 natural log
L45T: -1.54 natural log
A46K: -1.1 natural log
A57K: -1.04 natural log

Series 4 — method: RNA Bind-n-Seq; form: RNA; sample: in vitro; tested at: not given; reference: input RNA pool; reading: higher = stronger binding; measurement: bound/input enrichment
Target: RING finger protein unkempt homolog, zinc fingers 1-6, GST-SBP tag (UNK, Homo sapiens, UniProt Q9C0B0, residues 30-357)
UniProt Q9C0B0, sequence (30-357, looked up): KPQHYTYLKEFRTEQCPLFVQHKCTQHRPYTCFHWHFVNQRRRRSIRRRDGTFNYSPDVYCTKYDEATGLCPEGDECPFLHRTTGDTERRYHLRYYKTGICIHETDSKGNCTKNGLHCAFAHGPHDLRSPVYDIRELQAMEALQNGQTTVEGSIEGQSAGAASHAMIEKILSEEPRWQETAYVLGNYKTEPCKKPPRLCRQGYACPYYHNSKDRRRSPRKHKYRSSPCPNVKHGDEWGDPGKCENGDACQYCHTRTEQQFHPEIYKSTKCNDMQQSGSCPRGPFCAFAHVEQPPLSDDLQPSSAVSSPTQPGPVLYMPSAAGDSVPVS
Setting: RNA with constant flanks, human and mouse sites, ends assumed
Shared flanks, not repeated: GGGAGUUCUACAGUCCGACGAUC … CAACAGAGGAUUGAGCAUCA
CUGCGAAAAUUCAUUCCGCUGUAACGUUUUUUCACAAUAUUUAAAGCAGAAGCACGUCAGUAAGGUUUCCUUCUGCAUAAGGUUUUUGUAGUGUGAUGUCUUAAUCAUAGUCUACCAUCA: 0.344 ratio
CCUGCCACUGUCGAGCAGCAGGAGCAUUGGUUUGAAAAGGCCCUACGAGACAAGAAGGGCUUCAUCAUCAAGCAGAUGAAGGAGGAUGGCGCCUGUCUCUUCCGGGCUGUAGCUGACCAG: 0.0694 ratio
CCUUAGGUAACCCUGGUCUGACUAACUAAAGACUUCCCCUCAUGUCACUCCUGGUGUAUAUAGGUCACUGCCAAGAAGUUCUGCUCCAUCAUUGGCCUUGCCCUUCUCUAUGUCACCAAG: 0.216 ratio
CGAUGUCCAGUCACUGUGUGUGGAGAUGUACAUGGGCAAUUUCAUGAUCUCAUGGAACUCUUUAGAAUUGGUGGUAAAUCACCAGAUACAAAUUACCUGUUUAUGGGAGACUAUGUGGAC: 2.72 ratio
UUUCAGGGAAAUAAUUUUCCAGUUGUUUUUGCUAUAUUCUGCAAAUAAAAAGUGUGUGUUUCCUUUUUUCCACCUAAACUUUGGUAGGAAACAGACUAAAGCAGACAAACAUUUCUUGUU: 0.127 ratio
UGUAGAGCUAAUGUUUACCUUCUUCCGACCGGGAAAAUAGUUUAUUUCAUUGCAUCAGUAGUAGUACUAUUUAAUUAUGAGGAGAGAACUCAGCGACACUACCUGGGCCAUACAGACUGU: 4.5 ratio
CCUGGACUGACUGACCAGAAGACUGUCCCAACACCAACAGUACCUUCAGGUUCCUUCUCACAUAGAGAGAAGCCCAGUAUUUUCUAUCAACAGGAGUGGCCAGAUAGUUAUGCAACUGAA: 0.504 ratio
AUCUCUUUUCCCCUGUCCUGAUUUUAAAAGCCCCCUCCUUUUUUUUUUUUUUUUUCUUUUUUUAGGCAUAUGUAGUAAUAUUAGAAACAUUUAAUUUGGGAAACUUUGAUUCUUGAAAGA: 33.9 ratio
GGAGGAGGAGCCGCGGGCAACGAGGUUUCUCUGUCAUUCACAGAAAAAUGAAUCAUUUAAACCUUUGGAGGACUCAGUUAUCACAAUACUUCUCUACUACCAACUAAGAUUUAUGAUAGU: 0.479 ratio
CUGGGGCCAUUGGAGGCCCACUGUAGGUGGGAGGGAGCUGAUUUUGGGGUGGGGGGUGGGACUAGAGGGCAAUACUGAAGGGGUUAAACAGGUUUUUGCUCCUCAAGAAUUUGUUUGCCU: 1.05 ratio
GUACUGCAACAGCAGGGCAAGCUGCAGGAAGCACUGAUGCACUAUAAAGAAGCCAUACGAAUUAGUCCUACAUUUGCUGAUGCUUAUUCCAAUAUGGGAAACACUCUAAAGGAGAUGCAG: 0.804 ratio

Series 5 — target: CCNB3, cyclin fold, Cln2 fusion (human); method: yeast growth competition, sequencing; sample: yeast; setting: weak parent motif; reference: not given; reading: higher = stronger binding; measurement: normalised enrichment score
Parent: HASPIN docking peptide (human); ASLRSVLFGLMNS
ASLRSVLFGLMAS [N12A]: 0.766
ASARSVLFGLMNS [L3A]: 0.417
ASLRSVLFGLMNA [S13A]: -0.164
AALRSVLFGLMNS [S2A]: -0.364
ASLASVLFGLMNS [R4A]: -0.347
ASLRSVAFGLMNS [L7A]: 0.571

Excerpt of the above (series 2):
2'F-ANA at 3 4 6 10 11 12 14 15: 186 a.u.
2'F-ANA at 2 7 8 9 10 11 12 14 15: 102 a.u.
2'F-ANA at 2 5 11 12 15: 168 a.u.
2'F-ANA at 1 3 4 5 6 8 9 10 12 13: 51.6 a.u.
2'F-ANA at 1 4 5 7 10 11 13 15: 47.2 a.u.
